Assay results pooled from the literature.
Lines come from different studies, so protocols differ.

| Structure (SMILES) | test | test system | setting | tumour growth inhibition [%] |
| --- | --- | --- | --- | --- |
| Cn1c(=O)n(-c2ccc(C(C)(C)C#N)cc2)c2c3cc(-c4cnc5ccccc5c4)ccc3ncc21 |  | PC-3 xenograft, mouse | oral, 30 mg/kg once daily, 14 days | 67.6 |
| CO.Cc1ccc2c(Cl)cc(Cl)c([O-])c2n1.Cc1ccc2c(Cl)cc(Cl)c([O-])c2n1.[Co+2].c1ccc2nc3c4cccnc4c4ncccc4c3nc2c1 | refers to: tumour weight | HeLa xenograft, nude mouse | 2.0 mg/kg every 2 days, 21.0 days | 43.7 |
| NC(=O)c1cccnc1.O.O=c1[nH]cc(F)c(=O)[nH]1.O=c1[nH]cc(F)c(=O)[nH]1.O=c1[nH]cc(F)c(=O)[nH]1 |  | nude mouse HCT-116 xenograft | 0.012 mmol/kg/day, 21 days | 28.5 |
| CN1Cc2cnc3ccc(-c4ccc(N)nc4)nc3c2N(c2cccc(C(F)(F)F)c2)C1=O |  | PC-3 xenograft, mouse | oral, 60 mg/kg once daily, 14 days | 82.1 |
| Cc1cc(O)cc(O)c1C(=O)c1c2c3c(c(O)cc(C)c3oc1=O)C(=O)c1c(O)cc(O)cc1-2 |  | H22 subcutaneous, mouse | intraperitoneal, 5 mg/kg daily | 55 |
| N#Cc1cccc(-c2ccc(=O)n(Cc3cccc(-c4ncc(OCC5CCN(CC(=O)N6CCN(c7ccc8c(c7)C(=O)N(C7CCC(=O)NC7=O)C8=O)CC6)CC5)cn4)c3)n2)c1 (centres unmarked) |  | mouse Hs746T xenograft | oral, 40 mg/kg daily, 12 days | 99.2 |
| NC(CSSCC(N)C(=O)N1CCn2cc(-c3ccccc3)nc2C1CC1CCCCC1)C(=O)N1CCn2cc(-c3ccccc3)nc2C1CC1CCCCC1 (centres unmarked) |  | mouse MP41 xenograft | intraperitoneal, 15 mg/kg/day, 21 d | 55.3 |
| N#Cc1cccc(-c2ccc(=O)n(Cc3cccc(-c4ncc(OCC5CCN(CC(=O)NCCOCCNc6ccc7c(c6)C(=O)N(C6CCC(=O)NC6=O)C7=O)CC5)cn4)c3)n2)c1 (centres unmarked) |  | mouse Hs746T xenograft | oral, 20 mg/kg daily, 12 days | 71.4 |
| Cn1cc(-c2cc(N3CCCCS3(=O)=O)ccc2N[C@H]2CC[C@H](C)CC2)c2cc[nH]c2c1=O (stereo in doubt) |  | mouse, SMOA1 medulloblastoma allograft, SMO W539L | oral, 1 mg/kg twice daily | 68.7 |
| C=CC(=O)N1C[C@H](C)N(c2nc(OC[C@@]34CCCN3C[C@H](F)C4)nc3c(F)c(-c4ccc(F)c5sc(N)c(C#N)c45)c(C(F)(F)F)cc23)C[C@H]1C |  | mouse MIA PaCa-2 xenograft | oral, 0.1 mg/kg daily, 28 days | 21 |
| CC(=O)Oc1c2c(c3ccc4c(c3c1OC(C)=O)C=CC(=O)C4(C)C)OC[C@@H]2C |  | mouse 4T1 tumour | intravenous, 10 mg/kg daily, with: anti-Ly6G neutrophil depletion | 19.6 |
| CN1CCN(c2ccc(Nc3ncc(Cl)c(Nc4ccccc4P(C)(C)=O)n3)cc2Br)CC1 |  | mouse, PC9-OR xenograft | oral, 30 mg/kg once daily, 14 days | 83.5 |
| O=c1[nH]c(N2CCC3(CC2)CN(CCO)c2cc(F)cc(F)c23)nc2c1CCCC2 |  | mouse COLO 320DM xenograft | intraperitoneal, 300 mg/kg once daily, 5 days on 2 off, 2 weeks | 44.2 |
| COc1cc(/C=C/C(=O)NCCCCCCNC2=C3C[C@@H](C)C[C@H](OC)[C@H](O)[C@@H](C)/C=C(\C)[C@H](OC(N)=O)[C@@H](OC)/C=C\C=C(/C)C(=O)NC(=CC2=O)C3=O)ccc1O | refers to: tumour weight | MDA-MB-231, mouse xenograft | intravenous, 10 mg/kg every three days, 15 d | 78.9 |

Some of these lines once more:
| Structure (SMILES) | test | test system | setting | tumour growth inhibition [%] |
| --- | --- | --- | --- | --- |
| Cn1cc(-c2cc(N3CCCCS3(=O)=O)ccc2N[C@H]2CC[C@H](C)CC2)c2cc[nH]c2c1=O (stereo in doubt) |  | mouse, SMOA1 medulloblastoma allograft, SMO W539L | oral, 1 mg/kg twice daily | 68.7 |
| C=CC(=O)N1C[C@H](C)N(c2nc(OC[C@@]34CCCN3C[C@H](F)C4)nc3c(F)c(-c4ccc(F)c5sc(N)c(C#N)c45)c(C(F)(F)F)cc23)C[C@H]1C |  | mouse MIA PaCa-2 xenograft | oral, 0.1 mg/kg daily, 28 days | 21 |
